{"data": "Assay results collected from several papers", "note": "Lines come from different studies, so protocols differ."}
{"SMILES": "[2H]C([2H])([18F])[C@]([2H])(N)C(=O)O", "assay": "PET", "test system": "athymic nude mouse, U-87 MG tumour", "setting": "90 min scan", "quantity": "bone uptake", "value": "~2 %ID/cc"}
{"SMILES": "CC(C)C[C@H](NC(=O)[C@H](CCCCN)NC(=O)OCC1c2ccccc2-c2ccccc21)C(=O)N[C@H](C(=O)N[C@@H](Cc1ccccc1)C(=O)N[C@@H](Cc1ccccc1)C(=O)N[C@@H](CCCCN)C(=O)NCC(=O)N[C@@H](Cc1ccccc1)C(=O)N[C@@H](C)C(=O)N[C@@H](Cc1c[nH]c2ccccc12)C(=O)N[C@@H](CC(N)=O)C(=O)N[C@H](C(=O)N[C@H]1CSSC[C@@H](C(=O)N[C@@H](Cc2c[nH]cn2)C(=O)N[C@@H](CCCNC(=N)N)C(=O)N[C@@H](CCCNC(=N)N)C(=O)N[C@@H](C)C(=O)N[C@@H](CC(N)=O)C(N)=O)NC(=O)[C@H](C(C)C)NC(=O)[C@H](CCCNC(=N)N)NC(=O)[C@H](C(C)C)NC(=O)CNC(=O)[C@H](CC(N)=O)NC(=O)[C@H](CCCNC(=N)N)NC(=O)[C@H](Cc2ccc(O)cc2)NC(=O)[C@H](C(C)C)NC1=O)C(C)C)C(C)C", "assay": "circular dichroism, refers to: Random-coil", "test system": "PBS", "setting": "80 µM, pH 7.4", "quantity": "secondary structure content", "value": "31.4%"}
{"SMILES": "C[C@H]1COCCN1c1nc(NCc2cccnc2C(F)(F)F)c2cccnc2n1", "test system": "conscious rat", "setting": "intravenous, 30 mg/kg", "how to read": "reference: control", "quantity": "PR change", "value": "18.1%"}
{"SMILES": "CCN1CCN(Cc2ccc(Nc3ncc(F)c(-c4cc(F)c5nc6n(c5c4)[C@H](C)CCC6)n3)nc2)CC1", "assay": "Phase Ia and Ib", "test system": "patients with solid tumours", "setting": "dose not given, all grades", "quantity": "hypokalaemia incidence", "value": "47.1%"}
{"SMILES": "N[C@@H]1c2ccccc2OC12CCN(c1cnc3c(N4CCCc5ncccc54)n[nH]c3n1)CC2", "test system": "patients advanced metastatic solid tumours", "setting": "oral, 60 mg once daily, pooled RP2D cohorts", "quantity": "TEAE leading to death", "value": "0%"}
{"SMILES": "COc1cc2c(Oc3ccc4[nH]c(C)cc4c3F)ccnc2cc1OCC1(N)CC1", "test system": "paediatric recurrent refractory sarcoma", "setting": "concentration not given, whole group", "quantity": "grade 3 sinus tachycardia", "value": "0%"}
{"SMILES": "Cn1cncc1-c1c(F)cncc1NC(=O)c1c(N)nn2cc(F)cnc12", "test system": "human patients", "setting": "oral, 80 mg once daily", "quantity": "grade ≥3 lymphocyte decrease incidence", "value": "0%"}
{"SMILES": "C[C@]1(CO)Cc2ncn(-c3ccc(C#N)c(Cl)c3)c2C(=O)O1", "test system": "human, Chinese, plasma", "setting": "3 mg single dose, geometric mean", "quantity": "half-life", "value": "4.4 h"}
{"SMILES": "CC(C)n1c(C2CCNCC2)nc2c([N+](=O)[O-])c(Br)c(Br)cc21", "assay": "refers to: Pneumonia", "test system": "AML patients", "setting": "125 mg", "quantity": "adverse events causing discontinuation", "value": "2%"}
{"SMILES": "[O-][S+]1CCc2nc(N3CCC(c4ncc(Cl)cn4)CC3)nc(NC3(CO)CCC3)c21 (centres unmarked)", "test system": "idiopathic pulmonary fibrosis patients", "setting": "18 mg twice daily", "quantity": "Somnolence adverse events", "value": "10%"}
{"SMILES": "CO[C@H]1C[C@@H]2CC[C@@H](C)[C@@](O)(O2)C(=O)C(=O)N2CCCC[C@H]2C(=O)O[C@H]([C@H](C)C[C@@H]2CC[C@@H](OC(=O)NCCOCCOCCOCCOCCOCCOCCOCCOCCC(=O)N3CCc4cc(Cn5nc(-c6ccc7oc(N)nc7c6)c6c(N)ncnc65)ccc4C3)[C@H](OC)C2)C[C@@H](O)[C@H](C)/C=C(\\C)[C@@H](O)[C@@H](OC)C(=O)[C@H](C)C[C@H](C)/C=C/C=C/C=C/1C", "assay": "refers to: treatment-related AEs", "test system": "patients with advanced solid tumours", "setting": "intravenous, dose not given, grade ≥3, all doses", "quantity": "patients with AE", "value": "0%"}
{"SMILES": "COc1cc(Nc2ncc(F)c(Nc3ccc4c(n3)NC(=O)C(C)(C)O4)n2)cc(OC)c1OC", "test system": "PBS", "setting": "24 h, pH 7.4, 0.1% DMSO", "quantity": "solubility", "value": "2.9 µM"}
{"SMILES": "O=C(Nc1ccccc1)C1CCN(C(=O)Oc2cccnc2)CC1", "test system": "healthy women", "setting": "oral, 100 mg, 9 days", "quantity": "adverse event Constipation", "value": "7.7%"}
{"SMILES": "O[C@H]1CCCN[C@@H]1CCCn1cnc2c(Cl)c(Cl)ccc21", "test system": "human, UGT2B7 NN phenotype, plasma", "setting": "oral, 150 mg, single dose", "quantity": "AUC(0-12 h)", "value": "751 ng·h/mL"}
{"note": "Excerpt of the above:"}
{"SMILES": "[2H]C([2H])([18F])[C@]([2H])(N)C(=O)O", "assay": "PET", "test system": "athymic nude mouse, U-87 MG tumour", "setting": "90 min scan", "quantity": "bone uptake", "value": "~2 %ID/cc"}
